Assay results of several laboratories.
Each line is one published result; not all experiments were run side by side. Numbers after ± are the reported error.
SLCO1B3: Solute carrier organic anion transporter family member 1B3 (SLCO1B3, Homo sapiens, UniProt Q9NPD5)
UniProt Q9NPD5, sequence (whole entry, looked up): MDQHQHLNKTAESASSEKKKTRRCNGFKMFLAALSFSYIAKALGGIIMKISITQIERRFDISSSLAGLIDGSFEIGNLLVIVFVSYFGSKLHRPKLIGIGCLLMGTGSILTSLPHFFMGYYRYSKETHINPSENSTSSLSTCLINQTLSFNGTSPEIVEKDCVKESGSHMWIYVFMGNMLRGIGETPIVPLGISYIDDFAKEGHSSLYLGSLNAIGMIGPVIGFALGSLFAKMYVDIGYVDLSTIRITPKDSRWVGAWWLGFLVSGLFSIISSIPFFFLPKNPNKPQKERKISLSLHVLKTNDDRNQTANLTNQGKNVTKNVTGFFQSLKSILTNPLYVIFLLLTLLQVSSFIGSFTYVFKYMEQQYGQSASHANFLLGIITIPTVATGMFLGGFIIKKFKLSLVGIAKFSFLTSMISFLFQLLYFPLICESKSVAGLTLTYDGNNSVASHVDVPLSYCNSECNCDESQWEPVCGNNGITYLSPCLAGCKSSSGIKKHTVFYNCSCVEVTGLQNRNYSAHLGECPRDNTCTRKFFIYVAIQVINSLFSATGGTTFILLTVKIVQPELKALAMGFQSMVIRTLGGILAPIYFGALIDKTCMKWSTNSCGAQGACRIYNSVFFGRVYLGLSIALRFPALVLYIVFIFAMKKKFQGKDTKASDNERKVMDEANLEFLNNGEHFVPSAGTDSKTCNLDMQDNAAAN
CYP3A4: Cytochrome P450 3A4 (CYP3A4, Homo sapiens, UniProt P08684)
UniProt P08684, sequence (whole entry, looked up): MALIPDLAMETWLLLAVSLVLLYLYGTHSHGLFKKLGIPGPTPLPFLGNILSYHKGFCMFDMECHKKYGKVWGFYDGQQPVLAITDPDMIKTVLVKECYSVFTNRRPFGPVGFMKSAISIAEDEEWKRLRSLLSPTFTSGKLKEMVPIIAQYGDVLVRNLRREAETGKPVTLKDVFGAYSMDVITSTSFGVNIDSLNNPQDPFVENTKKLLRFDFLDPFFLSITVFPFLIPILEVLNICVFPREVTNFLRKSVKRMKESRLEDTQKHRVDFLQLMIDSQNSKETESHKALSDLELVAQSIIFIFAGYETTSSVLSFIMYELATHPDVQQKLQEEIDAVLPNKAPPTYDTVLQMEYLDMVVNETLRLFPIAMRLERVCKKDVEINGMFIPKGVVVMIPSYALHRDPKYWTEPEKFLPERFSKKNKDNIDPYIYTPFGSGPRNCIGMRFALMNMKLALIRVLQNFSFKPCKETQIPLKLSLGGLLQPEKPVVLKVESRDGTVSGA
UniProt P08835, sequence (whole entry, looked up): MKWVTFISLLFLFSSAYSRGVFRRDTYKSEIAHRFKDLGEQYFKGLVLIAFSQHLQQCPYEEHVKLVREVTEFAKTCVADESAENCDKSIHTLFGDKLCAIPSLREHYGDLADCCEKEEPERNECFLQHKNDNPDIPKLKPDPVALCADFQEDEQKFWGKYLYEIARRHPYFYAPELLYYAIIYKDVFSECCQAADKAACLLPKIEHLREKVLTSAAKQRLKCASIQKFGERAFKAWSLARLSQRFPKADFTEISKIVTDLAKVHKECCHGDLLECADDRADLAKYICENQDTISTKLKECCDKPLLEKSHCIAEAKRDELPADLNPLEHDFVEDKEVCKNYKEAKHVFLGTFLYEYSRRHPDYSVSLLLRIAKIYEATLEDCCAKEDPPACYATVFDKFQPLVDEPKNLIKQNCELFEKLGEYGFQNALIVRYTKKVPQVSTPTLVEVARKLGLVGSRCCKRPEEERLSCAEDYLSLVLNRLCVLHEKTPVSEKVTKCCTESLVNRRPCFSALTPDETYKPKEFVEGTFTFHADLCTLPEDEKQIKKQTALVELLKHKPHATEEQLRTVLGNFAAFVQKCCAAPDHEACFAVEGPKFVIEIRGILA
UniProt P08246, sequence (whole entry, looked up): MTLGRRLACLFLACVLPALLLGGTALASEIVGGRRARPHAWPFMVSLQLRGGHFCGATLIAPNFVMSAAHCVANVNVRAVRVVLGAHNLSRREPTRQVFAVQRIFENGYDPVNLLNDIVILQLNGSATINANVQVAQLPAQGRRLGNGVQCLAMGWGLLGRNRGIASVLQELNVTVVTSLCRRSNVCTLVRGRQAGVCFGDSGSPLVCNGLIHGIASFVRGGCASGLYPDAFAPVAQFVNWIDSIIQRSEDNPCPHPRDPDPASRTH
UniProt Q12809, sequence (whole entry, looked up): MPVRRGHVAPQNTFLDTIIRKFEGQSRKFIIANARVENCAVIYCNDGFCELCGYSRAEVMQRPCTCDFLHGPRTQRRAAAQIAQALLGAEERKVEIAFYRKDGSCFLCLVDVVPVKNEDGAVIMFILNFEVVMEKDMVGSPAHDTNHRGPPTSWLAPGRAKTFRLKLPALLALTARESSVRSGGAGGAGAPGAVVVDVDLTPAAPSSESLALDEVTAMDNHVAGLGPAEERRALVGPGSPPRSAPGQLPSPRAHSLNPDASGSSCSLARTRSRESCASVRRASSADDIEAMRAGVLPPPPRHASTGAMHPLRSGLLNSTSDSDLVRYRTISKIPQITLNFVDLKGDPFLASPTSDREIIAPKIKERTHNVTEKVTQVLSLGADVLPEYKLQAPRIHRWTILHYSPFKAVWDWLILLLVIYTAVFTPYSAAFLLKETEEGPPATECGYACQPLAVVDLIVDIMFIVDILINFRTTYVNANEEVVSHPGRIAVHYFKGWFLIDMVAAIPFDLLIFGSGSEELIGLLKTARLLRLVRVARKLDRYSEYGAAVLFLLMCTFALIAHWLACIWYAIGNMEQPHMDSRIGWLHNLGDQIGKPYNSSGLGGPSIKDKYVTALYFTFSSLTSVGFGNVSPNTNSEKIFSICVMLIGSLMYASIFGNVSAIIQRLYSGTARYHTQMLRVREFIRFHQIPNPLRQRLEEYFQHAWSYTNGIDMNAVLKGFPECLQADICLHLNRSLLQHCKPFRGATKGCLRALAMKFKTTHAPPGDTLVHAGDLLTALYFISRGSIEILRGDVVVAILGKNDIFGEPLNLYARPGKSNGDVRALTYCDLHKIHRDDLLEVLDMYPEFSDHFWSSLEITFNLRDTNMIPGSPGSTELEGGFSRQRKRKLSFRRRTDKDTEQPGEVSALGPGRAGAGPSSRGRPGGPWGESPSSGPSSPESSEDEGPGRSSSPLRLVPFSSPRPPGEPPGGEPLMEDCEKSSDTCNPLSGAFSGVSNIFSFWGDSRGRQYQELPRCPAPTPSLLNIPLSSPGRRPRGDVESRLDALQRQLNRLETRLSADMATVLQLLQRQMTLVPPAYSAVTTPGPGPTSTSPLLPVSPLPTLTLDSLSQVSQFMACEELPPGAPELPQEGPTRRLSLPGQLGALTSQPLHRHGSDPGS
UniProt P61073, sequence (whole entry, looked up): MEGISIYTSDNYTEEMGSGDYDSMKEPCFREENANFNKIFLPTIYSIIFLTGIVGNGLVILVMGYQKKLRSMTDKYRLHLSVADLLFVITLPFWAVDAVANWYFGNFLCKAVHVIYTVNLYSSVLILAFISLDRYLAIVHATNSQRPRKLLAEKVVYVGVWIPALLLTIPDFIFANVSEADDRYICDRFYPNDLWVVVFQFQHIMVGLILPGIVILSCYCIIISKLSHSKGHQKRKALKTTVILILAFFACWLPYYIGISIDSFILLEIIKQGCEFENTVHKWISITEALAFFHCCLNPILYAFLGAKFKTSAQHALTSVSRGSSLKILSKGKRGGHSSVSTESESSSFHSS

| SMILES | target | assay | test system | conditions | scale | endpoint | value |
| --- | --- | --- | --- | --- | --- | --- | --- |
| N=C(N)NCCC[C@@H]1NC(=O)[C@H](CCCNC(=N)N)NC(=O)[C@H](CCCNC(=N)N)NC(=O)[C@H](CCCNC(=N)N)NC(=O)[C@H](Cc2c[nH]c3ccccc23)NC(=O)[C@H](CCCNC(=N)N)NC(=O)[C@H](CCCNC(=N)N)NC(=O)[C@@H](N)CCCCn2cc(nn2)C[C@@H](C(N)=O)NC1=O | trypsin | substrate, HPLC | – | pH 7.4, 37 °C | – | complete degradation time | 85 to 110 min |
| CSc1nc2[nH]nc([N+](=O)[O-])c(=O)n2n1 | SLCO1B3 | transport activity, item: OATP1B3 | – | 100 µM | – | inhibition | no inhibition |
| [64Cu+2].c1ccc(CNCc2ccc(CN3CCCNCCNCCCNCC3)cc2)nc1 | CXCR4 | – | NOD/SCID mouse, U87 and U87-stb-CXCR4 xenografts, pancreas | iv, 90 min, no blocking dose, ex vivo | – | tissue uptake | 1.48 ± 0.09 %ID/g |
| Cc1c(NC(=O)c2ccc3c(c2)CC[C@@H]2C[C@@](O)(C(F)(F)F)CC[C@@]32Cc2ccccc2)ccc[n+]1[O-] | CYP3A4/5, human | time-dependent inhibitor, item: 1'-hydroxymidazolam | pooled human liver microsomes | with: midazolam 23 µM | – | kinact | ~0.00045 s⁻¹ |
| N=C(N)NCCC[C@@H]1NC(=O)[C@H](CCCNC(=N)N)NC(=O)[C@H](CCCNC(=N)N)NC(=O)[C@H](CCCNC(=N)N)NC(=O)[C@H](Cc2c[nH]c3ccccc23)NC(=O)[C@H](CCCNC(=N)N)NC(=O)[C@H](CCCNC(=N)N)NC(=O)[C@@H](N)CSSC[C@@H](C(N)=O)NC1=O | trypsin | substrate, HPLC | – | pH 7.4, 37 °C | – | complete degradation time | 60 min |
| CN1C(=O)[C@@H](Cc2ccc(O)cc2)NC(=O)CNC(=O)[C@H](Cc2ccc3ccccc3c2)NC(=O)[C@H](CCCNC(=N)N)NC(=O)[C@H]1CCCNC(=O)c1ccc(CNC(=O)CN2CCN(CC(=O)O)CCN(CC(=O)O)CCN(CC(=O)O)CC2)cc1 [gallium-68 labelled] | CXCR4 (Homo sapiens, UniProt P61073) | PET imaging | human, liver | – | – | SUVmax | 2.99 |
| CC(CCC(=O)NCC(=O)O)C1CCC2C3CCC4CC(OC5OC(C(=O)O)C(O)C(O)C5O)CCC4(C)C3CC(O)C12C (centres unmarked) | SLCO1B3 | substrate | transfected HEK293 cells | 1 µM, 2 min | relative to: wild-type HEK293 cells | uptake ratio | 5.5 ± 0.4 |
| Cc1cc(C)c(-c2cc(C)c(OP(=O)([O-])OCCC[C@H](C(=O)[O-])N3CCN(CC(=O)[O-])CCN(CC(=O)[O-])CCN(CC(=O)[O-])CC3)cc2C)c(C)c1.[Gd+3] | Albumin (ALB, Homo sapiens, UniProt P02768) | albumin binding, variable temperature NMRD fit | albumin-bound complex | 0.1 mM, pH 7.4, 37 °C, fit 5-35 °C data, with: HSA 0.66 mM | – | water residency time | 108 ns |
| CC[C@H](C)[C@H](NC(=O)[C@H](CC(C)C)NC(=O)[C@H](CC(N)=O)NC(=O)CNC(=O)[C@H](CO)NC(=O)[C@H](CC(C)C)NC(=O)[C@@H](NC(=O)[C@H](CC(C)C)NC(=O)[C@H](CCC(N)=O)NC(=O)[C@]1(C)CCCC=CCCC[C@](C)(NC(=O)[C@@H]2CCCN2C(=O)[C@H](CC(=O)O)NC(C)=O)C(=O)N[C@@H](CCCNC(=N)N)C(=O)N[C@@H](CC(C)C)C(=O)N[C@@H](CC(C)C)C(=O)N1)C(C)C)C(=O)N[C@@H](CCCCN)C(=O)N[C@@H](CCC(=O)O)C(=O)N[C@@]1(C)CCCC=CCCC[C@@](C)(C(=O)N[C@@H](Cc2c[nH]cn2)C(=O)N[C@@H](CO)C(=O)N[C@@H](CCCNC(=N)N)C(N)=O)NC(=O)[C@H](CCCNC(=N)N)NC(=O)[C@H](CCCNC(=N)N)NC(=O)[C@H](C(C)C)NC1=O | Chymotrypsinogen A (Bos taurus, UniProt P00766) | proteolytic stability, substrate | – | 100 µM, 24 h, pH 7.4, with: Chymotrypsinogen A 5 ng/mL | – | remaining peptide | no effect |
| Cc1cc(C)c(-c2cc(C)c(OP(=O)([O-])OCCC[C@H](C(=O)[O-])N3CCN(CC(=O)[O-])CCN(CP(=O)([O-])O)CCN(CC(=O)[O-])CC3)cc2C)c(C)c1.[Gd+3] | Albumin (ALB, Homo sapiens, UniProt P02768) | albumin binding, variable temperature NMRD fit | albumin-bound complex | 0.1 mM, pH 7.4, 37 °C, fit 5-35 °C data, with: HSA 0.66 mM | – | water residency time | 1.4 ns |
| CC[C@H](C)[C@H](NC(=O)[C@H](CCCCN)NC(=O)[C@@H](NC(=O)[C@H](CCC(N)=O)NC(=O)[C@@H](N)CCCNC(=N)N)[C@@H](C)CC)C(=O)N[C@@H](Cc1c[nH]c2ccccc12)C(=O)N[C@@H](Cc1ccccc1)C(=O)N[C@@H](CCC(N)=O)C(=O)N[C@@H](CC(N)=O)C(=O)N[C@@H](CCCNC(=N)N)C(=O)N[C@@H](CCCNC(=N)N)C(=O)N[C@@H](CCSC)C(=O)N[C@@H](CCCCN)C(=O)N[C@@H](Cc1c[nH]c2ccccc12)C(=O)N[C@@H](CCCCN)C(=O)N[C@@H](CCCCN)C(=O)NCC(=O)N[C@@H](CCCCN)C(=O)NCC(=O)N[C@@H](CCC(N)=O)C(=O)N[C@@H](Cc1c[nH]cn1)C(=O)N[C@@H](CCCNC(=N)N)C(=O)O | Neutrophil elastase (ELANE, Homo sapiens, UniProt P08246) | item: cAMP | 16HBE14o- | 25 µM, 30 min, with: HNE 3 µg/mL | – | activity reduction | 26% |
| O=C1Cc2cc(CCN3CCN(C4=NS(=O)(=O)c5ccccc54)CC3)c(Cl)cc2N1 | CYP3A4 | inhibitor | – | 10 µM, pH 7.4 | – | inhibition | 6.74% |
| CC[C@H](C)[C@H](NC(=O)[C@H](Cc1ccccc1)NC(=O)[C@@H]1CCn2cc(nn2)COCc2cn(nn2)CC[C@H](NC(=O)[C@H](Cc2ccc(O)cc2)NC(=O)[C@H](CO)NC(=O)[C@H](CO)NC(=O)[C@@H](NC(=O)[C@H](CC(=O)O)NC(=O)[C@H](CO)NC(=O)[C@@H](NC(=O)[C@H](Cc2ccccc2)NC(=O)[C@@H](NC(=O)CNC(=O)[C@H](CCC(=O)O)NC(=O)[C@H](C)NC(=O)[C@@H](N)Cc2c[nH]cn2)[C@@H](C)O)[C@@H](C)O)C(C)C)C(=O)N[C@@H](CCC(=O)O)C(=O)NCC(=O)N[C@@H](CCC(N)=O)C(=O)N[C@@H](C)C(=O)N[C@@H](C)C(=O)N[C@@H](CCCCN)C(=O)N1)C(=O)N[C@@H](C)C(=O)N[C@@H](Cc1c[nH]c2ccccc12)C(=O)N[C@@H](CC(C)C)C(=O)N[C@H](C(=O)N[C@@H](CCCCN)C(=O)NCC(=O)N[C@@H](CCCNC(=N)N)C(N)=O)C(C)C | trypsin | – | – | room temperature, with: trypsin 500 ng/µL | relative to: wild-type GLP-1 | half-life increase | 6 fold |
| CC(C)(O)c1ccccc1CC[C@H](c1cccc(/C=C/c2ccc3ccc(Cl)cc3n2)c1)[S+]([O-])CC1(CC(=O)O)CC1 (some centres unmarked) | CYP3A4 | – | human liver microsomes | 2 µM, pH 7.4, with: midazolam | – | inhibition | 10.9% |
| O=C(NCCCCCn1ccc2ccc(F)cc21)Oc1ccccc1F | Albumin (ALB, Sus scrofa, UniProt P08835) | – | porcine protein solution 17.5 mg/mL in PBS | 20 µM, 0.5 h, 37 °C | – | remaining parent compound | 69 ± 5% |
| CC(CCC(=O)NCC(=O)O)C1CCC2C3C(O)CC4CC(OC5OC(C(=O)O)C(O)C(O)C5O)CCC4(C)C3CCC12C (centres unmarked) | SLCO1B3 | transporter uptake, inhibitor | – | – | – | IC50 | > 100 µM |
| CNC(=O)Oc1cc(C)c([S+](C)[O-])c(C)c1 (centres unmarked) | CYP3A4 | – | human liver microsomes | 10 µM, pH 7.4, with: midazolam | – | inhibition | < 0% |
| N=C(N)NCCC[C@@H](NC(=O)[C@H](N)Cc1c[nH]c2ccccc12)C(=O)N[C@H](CCCCN)C(=O)N[C@H](Cc1c[nH]c2ccccc12)C(=O)N[C@H](CCCNC(=N)N)C(=O)N[C@H](CCCCN)C(=O)N[C@H](Cc1c[nH]c2ccccc12)C(=O)N[C@H](CCCNC(=N)N)C(=O)N[C@H](CCCCN)C(=O)N[C@H](Cc1c[nH]c2ccccc12)C(=O)N[C@H](CCCNC(=N)N)C(=O)N[C@H](CCCCN)C(N)=O | chymotrypsin | RP-HPLC | – | 6 h, 37 °C | – | remaining peptide | > 90% |
| CC(=O)OC1(C(C)=O)CCC2C3C=C(CO)C4=CC(=O)CCC4(C)C3CCC21C (centres unmarked) | CYP3A4 | substrate | – | substrate inhibition model | – | Ki | 388 ± 207 µM |
| CCN(CC)CCOc1ccc(-c2nnn(Cc3ccc(OC)cc3)c2N)cc1 | SLC22A2 (Homo sapiens, UniProt O15244) | transporter uptake, inhibitor | – | – | – | IC50 | 0.663 µM |
| CNC(=O)Oc1cc(C)c(S(C)(=O)=O)c(C)c1 | CYP3A4 | inhibitor | – | 2 µM, pH 7.4 | – | inhibition | 4.83% |
| CC(C)C[C@@H](NC(=O)[C@H](N)Cc1ccccc1)C(=O)NCC(=O)N[C@@H](C(=O)N[C@H](CC(C)C)C(=O)N[C@H](C)C(=O)N[C@H](CC(C)C)C(=O)N[C@H](CC(C)C)C(=O)NCC(=O)N[C@H](Cc1ccc(O)cc1)C(=O)N[C@H](CC(C)C)C(=O)N[C@H](C)C(=O)N[C@@H](C(=O)N[C@H](CCCNC(=N)N)C(=O)N1CCC[C@@H]1C(=O)N[C@H](Cc1ccccc1)C(=O)N[C@H](CC(C)C)C(=O)N1CCC[C@@H]1C(=O)N[C@H](CCCCN)C(=O)N[C@H](CCCCN)C(=O)N[C@H](CCCCN)C(=O)N[C@H](CCC(N)=O)C(=O)N[C@H](CCC(N)=O)C(=O)N[C@H](CCCCN)C(N)=O)C(C)C)C(C)C | chymotrypsin | substrate, HPLC | – | 450 µM, 540 min, 22 °C | – | peptide cleaved | 10% |
| CC(C)(O)c1ccccc1CC[C@H](c1cccc(/C=C/c2ccc3ccc(Cl)cc3n2)c1)S(=O)(=O)CC1(CC(=O)O)CC1 | CYP3A4 | – | human liver microsomes | 10 µM, pH 7.4, with: midazolam | – | inhibition | 32.8% |
| O=C(NC(CSC(Cc1ccccc1)C(=O)NCCCc1cccnc1)Cc1c[nH]c2ccccc12)c1cccnc1 (centres unmarked) | CYP3A4 | – | – | 16 µM, 2 h, with: 10 mM H2O2 | relative to: ligand-free enzyme | heme destroyed | 29% |
| Cn1cc(-c2cccc(CN3CCC4(CC3)COc3c4ccc4c3CN([C@H]3CCC(=O)NC3=O)C4=O)c2)cn1 | KCNH2 (Homo sapiens, UniProt Q12809) | ion current, inhibitor, manual patch clamp | – | – | – | IC30 | 18 µM |
| CCCS(=O)(=O)c1ccc2[nH]c(NC(=O)OC)nc2c1 | CYP3A4 | inhibitor | – | 10 µM, pH 7.4 | – | inhibition | 21.4% |

Excerpt of the above:
| SMILES | target | assay | test system | conditions | scale | endpoint | value |
| --- | --- | --- | --- | --- | --- | --- | --- |
| O=C1Cc2cc(CCN3CCN(C4=NS(=O)(=O)c5ccccc54)CC3)c(Cl)cc2N1 | CYP3A4 | inhibitor | – | 10 µM, pH 7.4 | – | inhibition | 6.74% |
| CC[C@H](C)[C@H](NC(=O)[C@H](Cc1ccccc1)NC(=O)[C@@H]1CCn2cc(nn2)COCc2cn(nn2)CC[C@H](NC(=O)[C@H](Cc2ccc(O)cc2)NC(=O)[C@H](CO)NC(=O)[C@H](CO)NC(=O)[C@@H](NC(=O)[C@H](CC(=O)O)NC(=O)[C@H](CO)NC(=O)[C@@H](NC(=O)[C@H](Cc2ccccc2)NC(=O)[C@@H](NC(=O)CNC(=O)[C@H](CCC(=O)O)NC(=O)[C@H](C)NC(=O)[C@@H](N)Cc2c[nH]cn2)[C@@H](C)O)[C@@H](C)O)C(C)C)C(=O)N[C@@H](CCC(=O)O)C(=O)NCC(=O)N[C@@H](CCC(N)=O)C(=O)N[C@@H](C)C(=O)N[C@@H](C)C(=O)N[C@@H](CCCCN)C(=O)N1)C(=O)N[C@@H](C)C(=O)N[C@@H](Cc1c[nH]c2ccccc12)C(=O)N[C@@H](CC(C)C)C(=O)N[C@H](C(=O)N[C@@H](CCCCN)C(=O)NCC(=O)N[C@@H](CCCNC(=N)N)C(N)=O)C(C)C | trypsin | – | – | room temperature, with: trypsin 500 ng/µL | relative to: wild-type GLP-1 | half-life increase | 6 fold |
| CC(C)(O)c1ccccc1CC[C@H](c1cccc(/C=C/c2ccc3ccc(Cl)cc3n2)c1)[S+]([O-])CC1(CC(=O)O)CC1 (some centres unmarked) | CYP3A4 | – | human liver microsomes | 2 µM, pH 7.4, with: midazolam | – | inhibition | 10.9% |
